Results pooled from the literature.
Compare with care: the assays were run in different laboratories. ± gives the spread as reported. ≈ marks a conversion by molar mass, not a printed value.

| Structure (SMILES) | tested on | assay | system | setting | endpoint | result |
| --- | --- | --- | --- | --- | --- | --- |
| CC(=O)O[C@@H]1[C@@H](O)[C@H]2O[C@@H]3C=C(C)C(=O)[C@@H](O)[C@]3(CO)[C@]1(C)[C@]21CO1 | HK-2 | cell growth or viability |  |  | IC50 | 350 nM |
| CC(C)C[C@H](NC(=O)[C@@H]1CCCN1C(=O)[C@@H]1CCCN1C(=O)[C@H](CCCNC(=N)N)NC(=O)[C@H](CCCNC(=N)N)NC(=O)[C@H](CCCNC(=N)N)NC(=O)[C@H](CCC(N)=O)NC(=O)[C@H](CCCNC(=N)N)NC(=O)[C@H](CCCNC(=N)N)NC(=O)[C@H](CCCCN)NC(=O)[C@H](CCCCN)NC(=O)[C@H](CCCNC(=N)N)NC(=O)CNC(=O)[C@@H](N)Cc1ccc(O)cc1)C(=O)N[C@@H](CCCNC(=N)N)C(=O)N[C@@H](CCCCN)C(=O)N[C@@H](CCCCN)C(=O)N[C@@H](CCCCN)C(=O)N[C@@H](CCCCN)C(=O)N[C@@H](CCCCN)C(=O)N[C@@H](Cc1c[nH]cn1)C(N)=O |  | telemetry | mouse, awake | intraperitoneal, dose not given | mean arterial pressure increase | ≤ 18 mmHg |
| CSCC[C@@H]1NC(=O)CNC(=O)[C@H](CCC(=O)O)NC(=O)[C@@H]2CSSC[C@H](NC(=O)[C@@H](N)Cc3ccc(O)cc3)C(=O)N[C@@H](CCC(N)=O)C(=O)N[C@@H](CCCCN)C(=O)N[C@@H](Cc3c[nH]c4ccccc34)C(=O)N[C@@H](CCSC)C(=O)N[C@@H](Cc3c[nH]c4ccccc34)C(=O)N[C@@H]([C@@H](C)O)C(=O)N[C@H]3CSSC[C@H](NC(=O)[C@H](C(C)C)NC1=O)C(=O)N[C@@H](CCCNC(=N)N)C(=O)N[C@@H](CC(C)C)C(=O)N[C@@H](Cc1c[nH]c4ccccc14)C(=O)N[C@H](C(=O)N[C@@H](CCCCN)C(=O)N[C@@H](CCCCN)C(=O)N[C@@H](CCCCN)C(=O)N[C@@H](CC(C)C)C(=O)N[C@@H](Cc1c[nH]c4ccccc14)C(=O)O)CSSC[C@H](NC(=O)[C@H](CCCCN)NC(=O)[C@H](CCCNC(=N)N)NC(=O)[C@H](CCC(=O)O)NC(=O)[C@H](CO)NC(=O)[C@H](CC(=O)O)NC3=O)C(=O)N2 | ND7/23 | peak TTX-sensitive sodium current |  | 0.003 µM, 1 peak | inhibition | 22.4 ± 10.5% |
| CC(C)CC(C)N1CCn2cc(C(=O)NCc3ccc(F)cc3F)c(=O)c(O)c2C1=O (stereo not shown) | human immunodeficiency virus 1 | single-round vector infection | integrase R263K |  | EC50 | 6.5 ± 1.2 nM |
| CC[C@H](C)[C@H](NC(=O)[C@H](C)NC(=O)[C@@H](NC(=O)[C@@H](NC(=O)[C@H](CC(C)C)NC(=O)[C@H](CCCCN)NC(=O)[C@@H](N)CCCCN)[C@@H](C)CC)[C@@H](C)O)C(=O)N[C@@H](CC(C)C)C(=O)N[C@@H](CCCCN)C(=O)N[C@@H](CCCCN)C(=O)N[C@H](C(=O)N[C@@H](CCCNC(=N)N)C(=O)N[C@@H](CCC(=O)O)C(=O)N[C@@H](CCCCN)C(=O)N[C@@H](CCCCN)C(=O)N[C@@H](CCCCN)C(=O)N[C@@H](CCC(=O)O)C(=O)N[C@@H](CS)C(=O)N[C@@H](CC(C)C)C(=O)N[C@H](C(=O)O)C(C)C)[C@@H](C)O | TTX-sensitive sodium channel (mouse) | resurgent sodium current, open-channel blocker, whole-cell patch clamp | mouse hippocampal CA3 neurons | 200 µM intracellular, 22 °C, step to +30 mV, 10 ms, added: repolarisation to -30 mV | decay time constant | 5.4 ± 0.4 ms |
| CC[C@H](C)[C@H](NC(=O)[C@H](CCCCN)NC(=O)[C@H](CCCCN)NC(=O)[C@H](CC(C)C)NC(=O)[C@H](Cc1c[nH]c2ccccc12)NC(=O)CN)C(=O)NCC(=O)N[C@@H](CCCCN)C(=O)N[C@@H](CCCCN)C(=O)N[C@H](C(=O)N[C@@H](CCC(=O)O)C(=O)N[C@@H](CCCNC(=N)N)C(=O)N[C@H](C(=O)NCC(=O)N[C@@H](CCC(N)=O)C(=O)N[C@@H](Cc1c[nH]cn1)C(=O)N[C@H](C(=O)N[C@@H](CCCNC(=N)N)C(=O)N[C@@H](CC(=O)O)C(=O)N[C@@H](C)C(=O)N[C@H](C(=O)N[C@H](C(=O)N[C@@H](CCC(N)=O)C(=O)N[C@H](C(=O)N[C@H](C(=O)NCC(=O)N[C@H](C(=O)N[C@@H](C)C(=O)N[C@@H](CCC(N)=O)C(=O)N[C@@H](CCC(N)=O)C(=O)N[C@@H](C)C(=O)N[C@@H](C)C(=O)N[C@@H](CC(N)=O)C(=O)N[C@H](C(=O)N[C@@H](C)C(=O)N[C@@H](C)C(=O)N[C@H](C(=O)N[C@@H](CC(C)C)C(=O)N[C@@H](CCCCN)C(N)=O)[C@@H](C)O)C(C)C)C(C)C)[C@@H](C)CC)[C@@H](C)O)[C@@H](C)CC)[C@@H](C)O)[C@@H](C)O)C(C)C)[C@@H](C)CC | Pseudomonas aeruginosa |  | isolate RKI 93/12, CAMHB |  | MIC | 128 µg/mL (≈ 30.5 µM) |
| COCCCCCCn1ccn2cc(C(=O)NCc3ccc(F)cc3F)c(=O)c(O)c2c1=O | human immunodeficiency virus 1 | single-round vector infection | integrase R263K |  | EC50 | 5 ± 0.2 nM |
| CC(C)CC(C(=O)N1CC2(CC1C#N)C(=O)Nc1ccccc12)N(C)C(=O)c1cc2c(F)cc(F)c(F)c2[nH]1 (stereo not shown) | pangolin coronavirus | viral replication |  | 0.03704 µM | inhibition | 98.8% |
| Cc1cc(/C=C/C#N)cc(C)c1Nc1nc(Nc2ccc(C#N)cc2)ncc1N | HIV-1 | viral replication, single-round infection | RT mutant Y181C |  | EC50 | 1.8 ± 0.2 nM |
| CCCCCCCCCCCCCCCC(=O)N[C@@H](CCC(=O)NCCOCCOCCC(=O)NCCOCCOCCC(=O)NCCCC[C@H](NC(=O)[C@H](CC(=O)O)NC(=O)[C@H](CC(C)C)NC(=O)[C@H](Cc1ccc(O)cc1)NC(=O)[C@H](CCCCN)NC(=O)[C@H](CO)NC(=O)[C@H](Cc1ccc(O)cc1)NC(=O)[C@H](CC(=O)O)NC(=O)[C@H](CO)NC(=O)[C@@H](NC(=O)[C@H](Cc1ccccc1)NC(=O)[C@@H](NC(=O)CNC(=O)[C@H](CCC(N)=O)NC(=O)[C@@H](CO)NC(=O)[C@@H](N)Cc1c[nH]cn1)[C@@H](C)O)[C@@H](C)O)C(=O)N[C@@H](CCCNC(=N)N)C(=O)N[C@@H](CCCNC(=N)N)C(=O)N[C@@H](C)C(=O)N[C@@H](CCC(N)=O)C(=O)N[C@@H](CC(=O)O)C(=O)N[C@@H](Cc1ccccc1)C(=O)N[C@H](C(=O)N[C@@H](CCC(N)=O)C(=O)N[C@@H](Cc1c[nH]c2ccccc12)C(=O)N[C@@H](CC(C)C)C(=O)N[C@@H](CC(C)C)C(=O)N[C@@H](CC(N)=O)C(=O)N[C@H](C(=O)NCC(=O)NCC(=O)N1CCC[C@H]1C(=O)N[C@@H](CO)C(=O)N[C@@H](CO)C(=O)NCC(=O)N[C@@H](C)C(=O)N1CCC[C@H]1C(=O)N1CCC[C@H]1C(=O)N1CCC[C@H]1C(=O)N[C@@H](CO)C(N)=O)[C@@H](C)O)C(C)C)C(=O)O |  | Western blot | C57BL/6J mouse CCl4 model, liver | dose not given | α-SMA, TGF-β and p-Smad2/3 | decreased |
